Published values collected from several papers.
Protocols differ between the studies behind these lines. Numbers after ± are the reported error.
DDR1: Epithelial discoidin domain-containing receptor 1 (DDR1, Homo sapiens, UniProt Q08345)
tsaD/tsaC with TsaB and TsaE: tsaD/tsaC, with TsaB and TsaE (Escherichia coli, UniProt P05852+P45748)
FGFR1: Fibroblast growth factor receptor 1 (FGFR1, Homo sapiens, UniProt P11362)
Tryptase beta-1: Tryptase beta-1 (Homo sapiens, UniProt Q15661)
P4HB: Protein disulfide-isomerase (P4HB, Homo sapiens, UniProt P07237)
Grm5: Metabotropic glutamate receptor 5 (Grm5, Rattus norvegicus, UniProt P31424)

O=C(O)[C@@H]1Cc2c([nH]c3ccccc23)[C@@H](c2ccc(Br)cc2Br)N1  IC50 (MEP cytidylyltransferase IspD (Plasmodium falciparum, UniProt Q8I273); enzyme activity, inhibitor, fluorimetric pyrophosphate; 60 nM enzyme): 0.084 ± 0.014 µM
CN(C)C(=O)c1ccc(C[S+]([O-])CC(=O)C23CC4CC(CC(C4)C2)C3)o1 (stereo not drawn)  IC50 (HSD11B1 (Homo sapiens, UniProt P28845); enzyme activity in cells, inhibitor): 0.144 µM
O=C(Nc1ccc(Cl)c(C(F)(F)F)c1)c1cccc(Oc2ccncc2)c1  IC50 (DDR1; enzyme activity, inhibitor, mobility shift): > 30 µM
COc1ccc(-c2oc3ccccc3c(=O)c2OCc2ccccc2)cc1  IC50 (β-glucosidase; enzyme activity, inhibitor): 0.17 ± 0.05 µM
O=C(Nc1cc(Cl)cc(Cl)c1)Nc1cccc(NCc2cccnc2)c1  IC50 (DDR1; enzyme activity, inhibitor, mobility shift): 1.24 µM
CO[C@@H]([C@@H](O)[C@H](O)C(=O)CO)[C@@H](C)O  IC50 (3-dehydroquinate synthase, chloroplastic (DHQS, Arabidopsis thaliana, UniProt Q8VYV7); enzyme activity, inhibitor, malachite green phosphate release; 29 °C): > 1000 µM
C[C@@H](O)[C@H](NC(=O)CP(=O)(O)OC[C@H]1O[C@@H](n2cnc3c(N)ncnc32)[C@H](O)[C@@H]1O)C(=O)O  IC50 (tsaD/tsaC with TsaB and TsaE; HPLC; pH 7.5, 23 °C, added: 5 mM ATP): 5.6 µM
COc1cc2nccc(Oc3ccc(NC(=S)N4CCC4)c(Cl)c3)c2cc1C(N)=O  IC50 (FGFR1): 0.0704 µM
CCCN(CC(=O)N(CCC)CC(=O)N(CC(N)=O)Cc1cn(CCCNC(=O)CCCOc2cccc(-c3nc4ccc(-c5nc6ccc(N7CCN(C)CC7)cc6[nH]5)cc4[nH]3)c2)nn1)C(=O)CNCc1cn(CCCNC(=O)CCCOc2cccc(-c3nc4ccc(-c5nc6ccc(N7CCN(C)CC7)cc6[nH]5)cc4[nH]3)c2)nn1  IC50 (MBNL1–r(CUG)109 complex; MBNL1 displacement; added: bulk yeast tRNA competitor): 22 ± 5 µM
NCc1cccc(C2CCN(C(=O)c3cccc(OCC(=O)C4(O)CCC4)c3)CC2)c1  IC50 (Tryptase beta-1; enzyme activity, inhibitor; tryptase 10 pM, added: AMC substrate): 0.0233 µM
CCCCOc1ccc(S(=O)(=O)N2CC2C(=O)OC)cc1 (stereo not drawn)  IC50 (P4HB; enzyme activity, inhibitor, absorbance; pH 7.6): 0.96 µM
C[C@@H](O)[C@H](NS(=O)(=O)NS(=O)(=O)OC[C@H]1O[C@@H](n2cnc3c(N)ncnc32)[C@H](O)[C@@H]1O)C(=O)O  IC50 (tsaD/tsaC with TsaB and TsaE; inhibitor, HPLC; pH 7.5, 23 °C, preincubation 1 min, added: ATP 1 mM and L-threonine): 45.5 ± 1.1 µM
COCCCCN1CCc2c(Cc3ccc(Cl)cc3)[nH]c3c(OC)ccc(c23)C1=O  IC50 (PDE5A (Homo sapiens, UniProt O76074); enzyme activity, inhibitor): 0.014 µM
N#Cc1cnc(Nc2nc3ccccc3o2)nc1-c1ccsc1  IC50 (Grm5; calcium signal, antagonist): 4.74 µM
NCc1cccc(C2CCN(C(=O)c3cccc(NC(=O)C(=O)C4(O)CCC4)c3)CC2)c1  IC50 (Tryptase beta-1; enzyme activity, inhibitor, AMC substrate release): 0.189 µM
O=C1Nc2ccc(OCC3CCNCC3)cc2C(=O)N(Cc2ccc(-c3ccccc3)cc2)[C@@H]1CC1CCCCC1  IC50 (SYVN1 (Homo sapiens, UniProt Q86TM6); enzyme activity, inhibitor, radiometric): 20 µM
COc1cc(/C=C/c2cc(/C=C/c3ccc(O)c(OC)c3)n(C(N)=O)n2)ccc1O  IC50 (Sterol carrier protein 2 (Helicoverpa armigera, UniProt K7NSY9); displacement of 1,8-ANS, fluorescence; pH 7.0, 25 °C, added: 1,8-ANS 15 µM): 32 µM
NCc1ccc(NC(=O)c2ccc3ccccc3c2O)cc1  IC50 (TMPRSS11D (Homo sapiens, UniProt O60235); enzyme activity, inhibitor; 15 min preincubation, added: Boc-VPR-AMC 100 µM): 30.3 ± 2.6 µM
CC1=C(C2=C(C)C(=O)c3c(cc(O)c(O)c3C(C)C)C2=O)C(=O)c2cc(O)c(O)c(C(C)C)c2C1=O (racemic)  IC50 (Bcl-2-like protein 1, transmembrane domain deleted (BCL2L1, Homo sapiens, UniProt Q07817); binding, fluorescence polarization; added: FITC-Bim BH3 peptide): 0.129 ± 0.004 µM
N#Cc1cnc(Nc2nc3ccccc3o2)nc1-c1ccccc1Cl  IC50 (Grm5; calcium signal, antagonist): 0.516 µM
Cc1cc(O)n(Cc2ccccc2)n1  IC50 (TDO2 (Homo sapiens, UniProt P48775); inhibitor; added: L-tryptophan 400 µM): 268 µM
C=C(C)c1cc(NNC(=N)N)c(C)cc1NNC(=N)N  IC50 (Mycosin-1 (Mycolicibacterium thermoresistibile, UniProt G7CDQ2); protease activity, inhibitor, quenched fluorescent peptide; Mycobacterium thermoresistibile): 76.8 µM
COc1ccc(C(C=CCN2CCCC2C(O)C(=O)O)(c2ccc(OC)cc2)c2ccc(OC)cc2)cc1 (stereo not drawn)  IC50 (SLC6A11 (Homo sapiens, UniProt P48066); [3H]GABA uptake, inhibitor; HEK293T; 120 min preincubation): 140 µM
O=C(NCCN1CCC(Cc2ccccc2)CC1)c1ccc2cc(Br)ccc2c1  IC50 (SLC6A4 (Homo sapiens, UniProt P31645); transporter uptake): 0.48 to 0.83 µM
COc1cc2nccc(Oc3ccc(NC(=S)N4CC(F)(F)C4)c(Cl)c3)c2cc1C(N)=O  IC50 (FGFR1): 0.136 µM
Cc1ccc(CNC(=O)[C@@H](NC(=O)[C@H](CCc2ccccc2)NC(=O)[C@H](CCc2ccccc2)NCc2cnccn2)C(C)C)cc1  IC50 (20S proteasome (Plasmodium falciparum, UniProt A0A5K1K7U1+Q8IJT1); β5 activity, inhibitor; added: Suc-LLVY-AMC, PA28α-activated): 0.229 µM
CCCCCCc1ccc(S(=O)(=O)N2CC2C(=O)OC)cc1 (stereo not drawn)  IC50 (P4HB; enzyme activity, inhibitor, absorbance; pH 7.6): 0.064 µM
O=C(CCCCCCNC(=O)c1cnc(N(c2ccccc2)c2ccccc2)nc1)NO  IC50 (HDAC (Lucilia cuprina egg nuclear extract); enzyme activity, inhibitor, fluorometric): 2 µM
Cc1cc(N2CCN(C(=O)CN3CCN(c4ccccc4)CC3)CC2)n2ncnc2n1  IC50 (Aromatase (CYP19A1, Homo sapiens, UniProt P11511); enzyme activity, inhibitor): 0.567 µM
O=C(O)c1ccc(C=C2SC(=S)N(c3cccc(C(F)(F)F)c3)C2=O)cc1  IC50 (CFTR (Homo sapiens, UniProt P13569, D1370N); ion current, inhibitor, patch clamp): 0.064 µM

For quick reference, copied from above:
O=C1Nc2ccc(OCC3CCNCC3)cc2C(=O)N(Cc2ccc(-c3ccccc3)cc2)[C@@H]1CC1CCCCC1  IC50 (SYVN1 (Homo sapiens, UniProt Q86TM6); enzyme activity, inhibitor, radiometric): 20 µM
COc1cc(/C=C/c2cc(/C=C/c3ccc(O)c(OC)c3)n(C(N)=O)n2)ccc1O  IC50 (Sterol carrier protein 2 (Helicoverpa armigera, UniProt K7NSY9); displacement of 1,8-ANS, fluorescence; pH 7.0, 25 °C, added: 1,8-ANS 15 µM): 32 µM
NCc1ccc(NC(=O)c2ccc3ccccc3c2O)cc1  IC50 (TMPRSS11D (Homo sapiens, UniProt O60235); enzyme activity, inhibitor; 15 min preincubation, added: Boc-VPR-AMC 100 µM): 30.3 ± 2.6 µM
CC1=C(C2=C(C)C(=O)c3c(cc(O)c(O)c3C(C)C)C2=O)C(=O)c2cc(O)c(O)c(C(C)C)c2C1=O (racemic)  IC50 (Bcl-2-like protein 1, transmembrane domain deleted (BCL2L1, Homo sapiens, UniProt Q07817); binding, fluorescence polarization; added: FITC-Bim BH3 peptide): 0.129 ± 0.004 µM
